Experimental data of several laboratories.
Lines come from different studies, so protocols differ. ± gives the spread as reported.
Technique: steady-state kinetics
B1: enzyme (Thermobifida fusca, UniProt Q47RK4); chain MTDVYILDAVRTPFGRYGGALSGIRPDDLAAHVLRALAERSPGLDPAAVDDVFFGDANGAGEDNRNVARMAALLAGWPTSVPGVTLNRLCGSGMESVIAANRAIAVGDASLAVAGGVESMSRAPWVLPKPAQGFPTGHETLYSTTLGWRMVNPAMPEQWTVSLGESTEQVAATYGISRAEQDAFALRSHERAARAWAEGVFDAEITQIPGAELERDESIRETSAEKLAALKPAFRPDGTITAGNASPLNDGAAALLIGDAAAAERVGREPLARIVSRGVAAVDPDVFGIGPVQAAEIALRRAGIGWDDLSVVELNEAFAAQSLACLKLWPDLDPEIVNPNGGAIAIGHPLGASGARIVGTLAHELHRRGGGWGLAAICIGVGQGLAVVLHR
B2: protein (Stereum hirsutum, UniProt P9WEW2); chain MAVATSVATPVPTPAYSAGRAPAKEKKIYLPDTLAEWPWPRAINPHYAEAKEESQAWAASFNAFSPKAQHAFNRCDFNLLASLAYPLATKHGCRSGCDLMNLFFVIDEYSDIAPVEEVRQQKDIVMDALRNPHKPRPEGEWVGGEVARQFWALTITNASAQSQKHFIETFDEYLDSVVQQAEDRSESRIRDIQSYIDVRRNTIGAKPSFALLELDMDLPDEVLAHPTIQSLSLATIDMLCLGNDIVSYNLEQARGDASHNIITIVMNELNLDVNGAMRWVGDFHKQLEKQFFEAFNNLPKWGNAELDAQIAVYCDGLGNWVRANDQWSFESERYFGARGLEIMETKTLAMMPIQRTEALGPQLVDDSIL
B3: protein (Klebsiella pneumoniae, UniProt A6T9E8); chain MSSVRIQVINPNTSLAMTETIGAAARAVAAPGTEILAVCPRAGVPSIEGHFDEAIAAVGVLEQIRAGREQGVDGHVIACFGDPGLLAARELAQGPVIGIAEAAMHMATMVATRFSIVTTLPRTLIIARHLLHQYGFHQHCAALHAIDLPVLALEDGSGLAQEKVRERCIRALKEDGSGAIVLGCGGMATLAQELTRELRVPVIDGVSAAVKMVESLVALGLATSKHGDLAFPEKKALSGQFQSLNPF
B4: enzyme H284A (Daphnia magna, UniProt A0A0A7CK57); chain MVDAAVAEKLEAGFQKLQEATNCKSLLKKHLTREIFDKIKDLKTSFGSTLLDVIQSGVENLDSGFGVYAPDAEAYSVFNDLFEPMICDYHTGFKPGDAHPPRDFGDLETFGNLDPEGAFIVSTRVRCGRSLAGYAFNPCLTEANYKEMEEKVVASLSSLEGELKGTYYPLTGMTKEVQTQLIQDRFLFKEGDRFLQAANACRYWPTGRGIYHNDAKTFLVWCNEEDHLRIISMQKGGDLKAVYARLVNAINEIEKRIPFSHHDKYGFLTFCPTNLGTTIRASVAIALPKLAADLAKLEEAAGKFNLQVRGTAGEHTEAEGGVYDISNKRRMGLTEYQAVKEMYDGLQELIRMEKEAA
B5: GTPBP3 E159V (Homo sapiens, UniProt Q969Y2); chain TRRSSGAPAPGSGATIFALSSGQGRCGIAVIRTSGPASGHALRILTAPRDLPLARHASLRLLSDPRSGEPLDRALVLWFPGPQSFTGEDCVEFHVHGGPAVVSGVLQALGSVPGLRPAEAGEFTRRAFANGKLNLTEVVGLADLIHAETEAQRRQALRQLDGELGHLCRGWAETLTKALAHVEAYIDFGEDDNLEEGVLEQADIEVRALQVALGAHLRDARRGQRLRSGVHVVVTGPPNAGKSSLVNLLSRKPVSIVSPEPGTTRDVLETPVDLAGFPVLLSDTAGLREGVGPVEQEGVRRARERLEQADLILAMLDASDLASPSSCNFLATVVASVGAQSPSDSSQRLLLVLNKSDLLSPEGPGPGPDLPPHLLLSCLTGEGLDGLLEALRKELAAVCGDPSTDPPLLTRARHQHHLQGCLDALGHYKQSKDLALAAEALRVARGHLTRLTGGGGTEEILDIIFQDFCVGK
B6: TcC (Trypanosoma cruzi, UniProt Q4DGA3); chain MPREYEFAEKILFTEEEIRTRIMEVAKRIADDYKGKGLRPYVNPLVLISVLKGSFMFTADLCRALSDFNVPVRMEFICVSSYGEGVTSSGQVRMLLDTRHSIEGHHVLIVEDIVDTALTLNYLYHMYFTRRPASLKTVVLLDKREGRRVPFSADYVVANIPNAFVIGYGLDYDDTYRELRDIVVLRPEVYAEREAARQKKQRAIGSADTDRDAKREFHSKY
B7: Paox H64A (Mus musculus, UniProt Q8C0L6); chain MAFPGPRVLVVGSGIAGLGAAQKLCSHRAAPHLRVLEATASAGGRIRSERCFGGVVELGAHWIAGPSQDNPVFQLAAEFGLLGEKELSEENQLVDTGGHVALPSMIWSSSGTSVSLELMTEMARLFYGLIERTREFLNESETPMASVGEFLKKEISQQVASWTEDDEDTRKRKLAILNTFFNIECCVSGTHSMDLVALAPFGEYTVLPGLDCILAGGYQGLTDRILASLPKDTVAFDKPVKTIHWNGSFQEAAFPGETFPVLVECEDGARLPAHHVIVTVPLGFLKEHQDTFFEPPLPAKKAEAIKKLGFGTNNKIFLEFEEPFWEPDCQFIQVVWEDTSPLQDTALSLQDTWFKKLIGFLVQPSFESSHVLCGFIAGLESEFMETLSDEEVLLSLTQVLRRVTGNPQLPAAKSVRRSQWHSAPYTRGSYSYVAVGSTGDDLDLMAQPLPEDGTGTQLQVLFAGEATHRTFYSTTHGALLSGWREADRLVSLWDSQVEQSRPRL
B8: protein (UniProt A0A4Y6I1D9); chain MTLDEKPRKFDGLDIEGVAFAASVTALGAAKPLALGGAGDRGLEINGNYIKFTAIGIYVEDGIIPHLSPKLRGKTVEELCEKELLFEEVISAPFEKLVRVVFLVPLTGIQYSEKVLERISVQSLFTDIKEEHKQQFLEIFKGESFPPRSSVILSFSKEGLKVAFAKGDDVPSKAVGTIEDATFADAVLATIIWKEGVSPAAKVSLAERLSKCL
B9: Pck1 A467G (Rattus norvegicus, UniProt P07379); chain MPPQLHNGLDFSAKVIQGSLDSLPQEVRKFVEGNAQLCQPEYIHICDGSEEEYGRLLAHMQEEGVIRKLKKYDNCWLALTDPRDVARIESKTVIITQEQRDTVPIPKSGQSQLGRWMSEEDFEKAFNARFPGCMKGRTMYVIPFSMGPLGSPLAKIGIELTDSPYVVASMRIMTRMGTSVLEALGDGEFIKCLHSVGCPLPLKKPLVNNWACNPELTLIAHLPDRREIISFGSGYGGNSLLGKKCFALRIASRLAKEEGWLAEHMLILGITNPEGKKKYLAAAFPSACGKTNLAMMNPTLPGWKVECVGDDIAWMKFDAQGNLRAINPENGFFGVAPGTSVKTNPNAIKTIQKNTIFTNVAETSDGGVYWEGIDEPLAPGVTITSWKNKEWRPQDEEPCAHPNSRFCTPASQCPIIDPAWESPEGVPIEGIIFGGRRPAGVPLVYEALSWQHGVFVGAAMRSEATAGAEHKGKVIMHDPFAMRPFFGYNFGKYLAHWLSMAHRPAAKLPKIFHVNWFRKDKNGKFLWPGFGENSRVLEWMFGRIEGEDSAKLTPIGYVPKEDALNLKGLGDVNVEELFGISKEFWEKEVEEIDKYLEDQVNADLPYEIERELRALKQRISQM
B10: BKGD (Homo sapiens, UniProt Q9H0W9); chain MACAEFSFHVPSLEELAGVMQKGLKDNFADVQVSVVDCPDLTKEPFTFPVKGICGKTRIAEVGGVPYLLPLVNQKKVYDLNKIAKEIKLPGAFILGAGAGPFQTLGFNSEFMPVIQTESEHKPPVNGSYFAHVNPADGGCLLEKYSEKCHDFQCALLANLFASEGQPGKVIEVKAKRRTGPLNFVTCMRETLEKHYGNKPIGMGGTFIIQKGKVKSHIMPAEFSSCPLNSDEEVNKWLHFYEMKAPLVCLPVFVSRDPGFDLRLEHTHFFSRHGEGGHYHYDTTPDIVEYLGYFLPAEFLYRIDQPKETHSIGRD
B11: hdhb (Clostridium sardiniense, UniProt G9FRD6); chain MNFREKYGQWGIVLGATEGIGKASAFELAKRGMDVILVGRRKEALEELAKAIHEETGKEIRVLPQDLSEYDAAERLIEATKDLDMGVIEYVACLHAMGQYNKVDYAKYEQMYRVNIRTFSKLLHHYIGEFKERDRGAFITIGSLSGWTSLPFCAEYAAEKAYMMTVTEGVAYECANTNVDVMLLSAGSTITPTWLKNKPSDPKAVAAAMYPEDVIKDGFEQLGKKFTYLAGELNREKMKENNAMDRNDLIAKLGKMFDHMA

Molecule	substrate	pH	temperature	notes	with	kcat [s⁻¹]
B1 (enzyme)	CC(C)(COP(=O)(O)OP(=O)(O)OC[C@H]1O[C@@H](n2cnc3c(N)ncnc32)[C@H](O)[C@@H]1OP(=O)(O)O)[C@@H](O)C(=O)NCCC(=O)NCCSC(=O)CCCC(=O)O	pH 7.4	37 °C			0.0035 ± 0.00065
B2 (protein)	CC(C)=CCC/C(C)=C/CC/C(C)=C/CO[P@@](=O)(O)OP(=O)(O)O	pH 8		NaCl 200 mM	FPP 1–100 µM	0.0063 ± 0.0007
B3 (protein)	NC(=O)N[C@@H]1NC(=O)NC1=O	pH 7.5	25 °C	NaCl 10 mM		238 ± 19
B4 (enzyme H284A)	N=C(N)NCCC[C@H](N)C(=O)O	pH 8.5				0.19 ± 0.02
B5 (GTPBP3 E159V)	Nc1nc2c(ncn2[C@@H]2O[C@H](COP(=O)(O)OP(=O)(O)OP(=O)(O)O)[C@@H](O)[C@H]2O)c(=O)[nH]1	pH 8	37 °C	KCl 300 mM		0.0125 ± 0.00233
B6 (TcC)	Nc1nc2nc[nH]c2c(=O)[nH]1	pH 8.3	37 °C	apparent	PRPP 1 mM, MgCl2 12 mM	30 ± 1
B7 (Paox H64A)	CC(=O)NCCCNCCCCNCCCN	pH 10	30 °C			3.1 ± 0.1
B8 (protein)	O=C(/C=C/c1ccc(O)cc1)c1c(O)cc(O)cc1O					155 ± 11.8
B9 (Pck1 A467G)	Nc1nc2c(ncn2[C@@H]2O[C@H](COP(=O)(O)OP(=O)(O)OP(=O)(O)O)[C@@H](O)[C@H]2O)c(=O)[nH]1	pH 7.5	25 °C			14 ± 0.1
B10 (BKGD)	O=C(O)[C@@H](O)C(=O)[C@H](O)[C@@H](O)CO		37 °C			4.27 ± 0.304
enzyme (Coprinopsis marcescibilis, UniProt A0A5C3KD26)	O=[N+]([O-])c1ccc2c(c1)OCO2					146 ± 1
B11 (hdhb)	NC(=O)c1ccc[n+]([C@@H]2O[C@H](COP(=O)(O)OP(=O)(O)OC[C@H]3O[C@@H](n4cnc5c(N)ncnc54)[C@H](O)[C@@H]3O)[C@@H](O)[C@H]2O)c1	pH 8	25 °C	cofactor varied		0.023 ± 0.001

Repeated from above:
Molecule	substrate	pH	temperature	notes	with	kcat [s⁻¹]
B2 (protein)	CC(C)=CCC/C(C)=C/CC/C(C)=C/CO[P@@](=O)(O)OP(=O)(O)O	pH 8		NaCl 200 mM	FPP 1–100 µM	0.0063 ± 0.0007
B6 (TcC)	Nc1nc2nc[nH]c2c(=O)[nH]1	pH 8.3	37 °C	apparent	PRPP 1 mM, MgCl2 12 mM	30 ± 1
